# Published values collected from several papers.
# Lines come from different studies, so protocols differ. ± marks the error that the study gave.
Structure (SMILES),assay,system,conditions,half-life [h]
O=C(NCc1ccc2c(c1)CN(C(=O)c1cc(-c3ccccc3)no1)C2)C1C=CC=CC=C1,,CD-1 mouse liver microsomes,"pH 7.4, added: NADPH",0.39
C=CC(=O)Nc1cccc(Cn2ncc3cnc(Nc4cnn(CCOC)c4)nc32)c1,,CD-1 mouse whole blood,5 µM,1.17
O=C(NC1CCC(F)(F)CC1)C(c1cncnc1)N(C(=O)C(F)Cl)c1ccc(OC(F)(F)F)cc1 (stereo not shown),,mouse liver microsomes,"concentration not given, pH 7.4",> 2.42
O=c1c(-c2cnn(-c3ccccc3)c2)c(C(F)(F)F)oc2c(O)c(O)ccc12,,mouse plasma,,3.85
O=Cc1cc(OCc2ccccc2)ccc1B(O)O,"chemical stability, HPLC-MS",borate buffered saline,"pH 10.2, no N-acetyl-lysine",10.8
O=C(N1CCCCC1)C12CC(c3ccccc3)(C1)C2,metabolic stability,pooled human liver microsomes,"2 µM, pH 7.4",1.17
CCCC/C=C/C(=O)N[C@@H](Cc1cc(F)cc(F)c1)C(=O)N[C@@H]1C(=O)N2CCC[C@H]2C(=O)N2CCCC[C@H]2C(=O)N[C@@H](C)C(=O)N2CCC[C@H]2C(=O)O[C@H]1C,"H-D exchange, 1H NMR, refers to: alanine amide hydrogen",CD3OD,25 °C,167
CC(C)Cn1cc(Cc2cccc(OC(C)(C)C(=O)O)c2)c2cc(F)c(C(=O)N[C@@H](C)c3cccc(C(C)(C)C)c3)cc21,,human liver microsomes,"1 µM, added: microsomes 1 mg/mL",> 1
C=Cn1cccn1,,,pH 7.4,74.5
O=Cc1ccc2cccc(O)c2n1,"reactivity with N-α-acetyl-lysine, HPLC-MS",,pH 10.2,> 24
Cc1c(Cc2ccc(Cl)c(O[C@@H](C)C(=O)O)c2)c2ccc(C(=O)N[C@@H](C)c3ccc(C(C)(C)C)cc3)cc2n1C,,human liver microsomes,"1 µM, added: microsomes 1 mg/mL",> 1
N=C(N)NCCC[C@@H]1NC(=O)[C@H](CCCNC(=N)N)NC(=O)[C@@H](C(c2ccccc2)c2ccccc2)NC(=O)[C@H](Cc2c[nH]c3ccccc23)NC(=O)[C@@H](C(c2ccccc2)c2ccccc2)NC(=O)[C@@H](CCCNC(=N)N)NC(=O)[C@@H](CCCNC(=N)N)NC1=O,LC-MS,human plasma,,≥ 6
Brc1nccs1,,,pH 7.4,45.5
CN(Cc1cc(C2CC2)on1)C(=O)c1cccc(-c2ccc(F)cc2)c1,,human liver microsomes,"2 µM, pH 7.5, added: 1-aminobenzotriazole 500 µM preincubated",> 2
CN(C(=O)OCc1cc(C(=O)O)ccc1OP(=O)(O)O)C(=O)c1ccc(N2C(=S)N(c3ccc(C#N)c(C(F)(F)F)c3)C(=O)C2(C)C)cc1F,,HBSS,"10 µM, 2 h incubation, pH 6.5",> 2
Cc1onc(-c2ccccc2)c1-c1ccc(S(=O)(=O)Cl)cc1,"reactivity with N-α-acetyl-lysine, HPLC-MS",,pH 10.2,0.4
N=C(N)NCCC[C@@H]1NC(=O)[C@H](CO)NC(=O)[C@@H](NC(=O)[C@H](CO)NC(=O)[C@H](CO)NC(=O)[C@H](Cc2c[nH]c3ccccc23)NC(=O)CNC(=O)[C@H](CO)NC(=O)[C@@H](N)Cc2c[nH]c3ccccc23)CSSC[C@@H](C(=O)NCC(=O)O)NC(=O)[C@H](CO)NC1=O,,"patients, plasma","intravenous, 5 mg/kg, thrice weekly, median",0.302
Cc1c(Cc2cccc(OC(C)(C)C(=O)O)c2)c2ccc(C(=O)N[C@@H](C)c3ccc(C(C)(C)C)cc3)cc2n1CC1CCC1,,human liver microsomes,"1 µM, added: microsomes 1 mg/mL",> 1
Cc1noc(C)c1C#N,,,pH 7.4,178
Cc1c(Cc2ccc(Cl)c(O[C@@H](C)C(=O)O)c2)c2ccc(C(=O)N[C@@H](C)c3cc(F)cc(C(C)(C)C)c3)cc2n1C,,mouse liver microsomes,"1 µM, added: microsomes 1 mg/mL",> 1
COc1ccc2c(c1)C(=O)C(=C[O-])C2.[Na+],"chemical stability, HPLC-MS",borate buffered saline,"pH 10.2, no N-acetyl-lysine",35.4
Cc1noc(C)c1Br,,,pH 7.4,837
Cc1c(Cc2ccc(Cl)c(OC(C)C(=O)O)c2)c2ccc(C(=O)NC(C)c3ccc(C(C)(C)C)cc3)cc2n1CC1CCC1 (stereo not shown),,human liver microsomes,"1 µM, added: microsomes 1 mg/mL",> 1
CC(C)C[C@H](NC(=O)[C@H](Cc1ccc(O)cc1)NC(=O)[C@H](CC(N)=O)NC(=O)[C@H](CO)NC(=O)[C@H](CCCNC(=N)N)NC(=O)[C@H](Cc1ccc(O)cc1)NC(=O)CNC(=O)[C@H](CCCNC(=N)N)NC(=O)[C@H](Cc1c[nH]cn1)NC(=O)[C@H](CO)NC(=O)[C@H](Cc1c[nH]cn1)NC(=O)[C@H](Cc1c[nH]cn1)NC(=O)[C@H](CCCCN)NC(=O)[C@H](CCC(=O)O)NC(=O)[C@H](Cc1c[nH]cn1)NC(=O)[C@H](Cc1ccccc1)NC(=O)[C@H](CCCCN)NC(=O)[C@H](CCCNC(=N)N)NC(=O)[C@H](CCCCN)NC(=O)[C@H](Cc1ccc(O)cc1)NC(=O)CNC(=O)[C@H](Cc1c[nH]cn1)NC(=O)[C@H](Cc1c[nH]cn1)NC(=O)[C@H](CCCNC(=N)N)NC(=O)[C@H](CCCCN)NC(=O)[C@H](C)NC(=O)[C@H](Cc1c[nH]cn1)NC(=O)[C@H](CO)NC(=O)[C@@H](N)CC(=O)O)C(=O)N[C@@H](Cc1ccc(O)cc1)C(=O)N[C@@H](CC(=O)O)C(=O)N[C@@H](CC(N)=O)C(=O)O,,human parotid secretion,"37 °C, median",6
CCOC(=O)[C@H](CCCNC(N)=O)NC(=O)[C@H](Cc1c[nH]c2ccccc12)NC(=O)[C@@H]1CCCCN1C(=O)[C@H](Cc1ccccc1)N(C)C(=O)CCl,MALDI MS,PaTu 8988t conditioned DMEM,10 µM,22.6
Cc1c(Cc2ccc(F)c(OC(C)C(=O)O)c2)c2ccc(C(=O)NC(C)c3ccc(C(C)(C)C)cc3)cc2n1CC(C)C (stereo not shown),,mouse liver microsomes,"1 µM, added: microsomes 1 mg/mL",> 1
O=CC1C(=O)Nc2ccccc21 (stereo not shown),"reactivity with N-α-acetyl-lysine, HPLC-MS",,pH 10.2,65.8
Cc1c(Cc2ccc(Cl)c(OC(C)C(=O)O)c2)c2ccc(C(=O)NC(C)c3ccc(C(C)(C)C)cc3)cc2n1CC1CC1 (stereo not shown),,mouse liver microsomes,"1 µM, added: microsomes 1 mg/mL",> 1
C/C(N)=N/C(=N\S(=O)(=O)c1ccc(C(F)(F)F)cc1)N1C[C@H](c2ccccc2)C(c2ccc(Cl)cc2)=N1,,rat liver cytosol,,1.95
Cc1c(Cc2cccc(OC(C)(C)C(=O)O)c2)c2ccc(C(=O)N[C@H](C)c3ccc(C(C)(C)C)cc3)cc2n1C,,human liver microsomes,,0.689
N[C@@H](CC(=O)O)C(=O)OC(C(=O)O)c1ccc(Br)cc1[N+](=O)[O-] (mixture of isomers),"hydrolysis, 1H NMR","aqueous citrate-ammonium sulfate, 12.5% DMSO-d6","pH 4.2, room temperature, dark, isomer B",19.3 ± 0.6
